Experimental data pooled from the literature.
Lines come from different studies, so protocols differ. “And” joins repeats or separate records; there may be more than shown. ± marks the error that the study gave.

Substance | test | system | setting | endpoint | result
N=C(N)NCCC[C@@H]1NC(=O)[C@H](CCCCNC(=S)Nc2ccc(CC3CN(CC(=O)O)CCN(CC(=O)O)CCN(CC(=O)O)CCN3CC(=O)O)cc2)NC(=O)[C@@H](Cc2ccc(O)cc2)NC(=O)[C@H](CC(=O)O)NC(=O)CNC1=O (some centres unmarked) [actinium-225 labelled] |  | mice with U-87 MG tumour, kidney | dose not given | initial activity A0 | 0.0025 µCi
CC(C)C[C@@H](NC(=O)[C@@H](CC(C)C)NC(=O)[C@@H](CC(=O)O)NC(=O)[C@@H](CC(C)C)NC(=O)[C@@H](CC(C)C)NC(=O)[C@@H](CC(C)C)NC(=O)[C@H](NC(=O)[C@@H](CC(=O)O)NC(=O)[C@H](NC(=O)[C@H]1CCCN1C(=O)[C@@H](Cc1ccccc1)NC(=O)[C@@H](CC(C)C)NC(=O)[C@@H](CC(C)C)NC(=O)[C@@H](CC(=O)O)NC(=O)[C@@H](CC(C)C)NC(=O)[C@@H](Cc1ccc(O)cc1)NC(=O)[C@@H](C)NC(=O)[C@@H](CCCNC(=N)N)NC(=O)[C@@H](Cc1c[nH]c2ccccc12)NC(=O)[C@H]1CCCN1C(=O)[C@@H](CC(N)=O)NC(=O)[C@@H](CCC(N)=O)NC(=O)[C@@H](CC(=O)O)NC(=O)[C@@H](CC(=O)O)NC(=O)[C@@H](CSC1CC(=O)N(CCNC(=O)CN2CCN(CC(=O)O)CCN(CC(=O)O)CC2)C1=O)NC(=O)[C@@H](C)N)[C@H](C)O)[C@H](C)O)C(=O)N[C@H](Cc1c[nH]c2ccccc12)C(=O)O (some centres unmarked) [fluorine-18 labelled] |  | female C57BL/6 mice, B16-F10 melanoma, blood | intravenous, 8 h | tissue uptake | 14.3 %ID/g
nucleophosmin S112E | far-UV CD, CDSSTR | Tris buffer, NaCl | pH 7.5, room temperature | alpha-helix content | 16%
CC(C)C[C@H](NC(=O)[C@@H](CCCCNC(=O)[C@@H](Cc1ccccc1)NC(=O)CCCCCNC(=O)CN1CCN(CC(=O)O)CCN(CC(=O)O)CCN(CC(=O)O)CC1)NC(=O)[C@H](Cc1ccc(O)cc1)NC(=O)[C@H](CO)NC(=O)[C@H](Cc1c[nH]c2ccccc12)NC(=O)[C@H](Cc1c[nH]cn1)NC(=O)[C@@H]1CCC(=O)N1)C(=O)N[C@@H](CCCNC(=N)N)C(=O)N1CCC[C@H]1C(=O)NCC(N)=O [indium-111 labelled] |  | female athymic nude mice, liver | intravenous, 0.037 MBq, 4 h | tissue uptake | 0.36 ± 0.04 %ID/g
CC(C)C[C@H](NC(=O)[C@H](Cc1ccc(O)cc1)NC(=O)[C@@H](CCCNC(=N)N)NC(=O)[C@@H](CO)NC(=O)[C@H](Cc1ccccc1)NC(=O)[C@H](CC1CCCCC1)NC(=O)[C@H](CC(=O)O)NC(=O)CN1CCN(CC(=O)O)CCN(CC(=O)O)CCN(CC(=O)O)CC1)C(=O)N[C@@H](Cc1c[nH]c2ccccc12)C(=O)N[C@@H](CO)C(=O)O [copper-64 labelled] |  | human, small intestine | concentration not given, 3 h | activity concentration | 4280 Bq/mL and 1290 Bq/mL and 2430 Bq/mL and 2380 Bq/mL and 3410 Bq/mL and 2450 Bq/mL
C=C1CC[C@H](OCCCNC(=O)CCOCCOCCOCCOCCOCCOCCOCCOCCOCCOCCOCCOCCOCCOCCOCCOCCOCCOCCOCCOCCOCCOCCOCCOCCOCCOCCOCCOCCOCCOCCOCCOCCOCCOCCOCCOCCNC(=O)CCN2C(=O)CC(SC[C@H](NC(=O)[C@H](Cc3ccccc3)NC(=O)[C@H](CC(N)=O)NC(=O)[C@H](Cc3c[nH]cn3)NC(=O)[C@@H](NC(=O)[C@H](CC(=O)O)NC(=O)[C@H](CCC(N)=O)NC(=O)[C@H](CC(C)C)NC(=O)[C@H](CCCCN)NC(=O)[C@H](CCCCN)NC(=O)[C@H](CCCNC(=N)N)NC(=O)[C@H](CC(C)C)NC(=O)[C@H](Cc3c[nH]c4ccccc34)NC(=O)[C@H](CCC(=O)O)NC(=O)[C@@H](NC(=O)[C@H](CCCNC(=N)N)NC(=O)[C@H](CCC(=O)O)NC(=O)[C@H](CCSC)NC(=O)[C@H](CO)NC(=O)[C@H](CC(N)=O)NC(=O)[C@H](CC(C)C)NC(=O)[C@H](Cc3c[nH]cn3)NC(=O)[C@H](CCCCN)NC(=O)CNC(=O)[C@H](CC(C)C)NC(=O)[C@H](CC(N)=O)NC(=O)[C@H](Cc3c[nH]cn3)NC(=O)[C@H](CCSC)NC(=O)[C@H](CC(C)C)NC(=O)[C@H](CCC(N)=O)NC(=O)[C@@H](NC(=O)[C@H](CCC(=O)O)NC(=O)[C@H](CO)NC(=O)[C@@H](NC(=O)[C@@H](N)CO)C(C)C)[C@@H](C)CC)C(C)C)C(C)C)C(=O)O)C2=O)C/C1=C/C=C1\CCC[C@]2(C)[C@@H]([C@H](C)CCCC(C)(C)O)CC[C@@H]12 (some centres unmarked) |  | cynomolgus monkey male | sc, 0.07 mg/kg single | clearance | 0.121 mL/min/kg
human nucleophosmin | far-UV CD, CDSSTR | Tris buffer, NaCl | pH 7.5, room temperature | alpha-helix content | 16%
CCCC[C@H](NC(=O)CCCCCCCNC(=O)CN1CCN(CC(=O)O)CCN(CC(=O)O)CC1)C(=O)N[C@H]1CC(=O)NCCCC[C@@H](C(N)=O)NC(=O)[C@H](Cc2c[nH]c3ccccc23)NC(=O)[C@H](CCCNC(=N)N)NC(=O)[C@@H](Cc2ccccc2)NC(=O)[C@H](Cc2c[nH]cn2)NC1=O [technetium-99m labelled] |  | C57 mouse, stomach | intravenous, 0.037 MBq, 24 h | tissue uptake | 0.6 ± 0.3 %ID/g

For quick reference, copied from above:
Substance | test | system | setting | endpoint | result
human nucleophosmin | far-UV CD, CDSSTR | Tris buffer, NaCl | pH 7.5, room temperature | alpha-helix content | 16%
